{"data": "Measured values collected from several papers", "note": "Protocols differ between the studies behind these lines. Numbers after ± are the reported error."}
{"Structure (SMILES)": "COc1cc(-c2oc3cc(O)c(OC)c(O)c3c(=O)c2OC)ccc1O", "cell line": "RBL-2H3", "test": "cell growth or viability, MTT", "setting": "100 µM", "viability": "> 90%"}
{"Structure (SMILES)": "CC(C)C1=CC2=CC[C@@H]3[C@](C)(CCC[C@@]3(C)C(=O)OCC#CCN3CCOCC3)[C@H]2CC1", "cell line": "BHK-21-hACE2", "setting": "20.0 µM, 48 (unit not given)", "viability": "121%"}
{"Structure (SMILES)": "CC[C@H](C)[C@H](NC(=O)[C@@H](N)CCCNC(=N)N)C(=O)N[C@@H](CC(N)=O)C(=O)N[C@@H](CC(N)=O)C(=O)N[C@H](C(=O)N1C[C@@H](n2cc([C]34[CH]5[CH]6[CH]7[CH]3[Fe]6754389%10[CH]4[CH]3[CH]8[CH]9[CH]4%10)nn2)C[C@H]1C(=O)N[C@@H](Cc1c[nH]c2ccccc12)C(=O)N[C@@H](CO)C(=O)N[C@@H](CCC(=O)O)C(=O)N[C@@H](C)C(=O)N[C@@H](CCSC)C(=O)N[C@@H](CCSC)C(N)=O)[C@@H](C)CC (stereo partly drawn)", "cell line": "P4-CCR5", "test": "MTT", "setting": "up to 59 µM, 2 h", "viability": "no effect"}
{"Structure (SMILES)": "CC(C)C1=CC2=CC[C@@H]3[C@](C)(CCC[C@@]3(C)C(=O)OCC#CCN3CCCC3)[C@H]2CC1", "cell line": "BHK-21-hACE2", "setting": "20.0 µM, 48 (unit not given)", "viability": "98.8%"}
{"Structure (SMILES)": "CC1=C2[C@@H](O)[C@H](C(=O)O)CC[C@@]2(C)CCC1=O", "cell line": "RBL-2H3", "test": "cell growth or viability, MTT", "setting": "100 µM", "viability": "> 90%"}
{"Structure (SMILES)": "N[C@H](CC[As](O)O)C(=O)O", "cell line": "MDA-MB-231", "setting": "10 µM, 72 (unit not given)", "viability": "~64%"}
{"Structure (SMILES)": "C=C(C(=O)O)[C@@H]1CC[C@@]2(C)CCC(=O)C(C)=C2[C@H]1O", "cell line": "RBL-2H3", "test": "cell growth or viability, MTT", "setting": "100 µM", "viability": "> 90%"}
{"Structure (SMILES)": "COc1ccc(C(=O)CCl)cc1", "cell line": "HMC3 GRN luciferase reporter clone", "test": "ATP-based", "setting": "11 µM, 72 h, 10% FBS", "viability": "> 75%"}
{"Structure (SMILES)": "COC(=O)c1c(C)[nH]c2c3c(c(O)c(CN4CCOCC4)c12)[C@H]1C[C@@H]2[C@@]4(C)CCC[C@@](C)(C(=O)OC)[C@@H]4CC[C@@]32C=C1C(C)C", "cell line": "BHK-21-hACE2", "setting": "20.0 µM, 48 (unit not given)", "viability": "116%"}
{"Structure (SMILES)": "CC(=O)N[C@H](CCCNC(=N)N)C(=O)N[C@H](CCCCN)C(=O)N[C@H](Cc1ccc(O)cc1)C(=O)N[C@H](CS)C(N)=O", "cell line": "MCF-10A", "test": "neutral red", "setting": "up to 50 nM, 24 h", "scale": "baseline: untreated", "viability": "no effect"}
{"Structure (SMILES)": "CC(C)[C@H](NC(=O)[C@@H](NC(=O)[C@H](CCCNC(=N)N)NC(=O)[C@H](CCCNC(=N)N)NC(=O)[C@H](CCCNC(=N)N)NC(=O)[C@H](CCC(N)=O)NC(=O)[C@H](CCCNC(=N)N)NC(=O)[C@H](CCCNC(=N)N)NC(=O)[C@H](CCCCN)NC(=O)[C@H](CCCCN)NC(=O)[C@H](CCCNC(=N)N)NC(=O)CN)[C@@H](C)O)C(=O)N[C@H](C(=O)N[C@@H](CO)C(=O)N1CCC[C@H]1C(=O)O)[C@@H](C)O", "cell line": "BEAS-2B", "test": "MTT", "setting": "concentration not given, 30 min, outcome no effect, with: Der f 2", "viability": "no effect"}
{"Structure (SMILES)": "CC(C)c1ccc2c(c1)CC[C@H]1[C@](C)(C(=O)OCC#CCN3CCCC3)CCC[C@]21C", "cell line": "BHK-21-hACE2", "setting": "20.0 µM, 48 (unit not given)", "viability": "91.5%"}
{"Structure (SMILES)": "CC(C)C[C@H](NC(=O)[C@H](CC(N)=O)NC(=O)[C@H](CCCNC(=N)N)NC(=O)[C@@H](N)CS)C(=O)O", "cell line": "B16-F1", "test": "MTT", "setting": "50 to 200 µM, 48 h", "viability": "not toxic"}
{"Structure (SMILES)": "CSCC[C@H](N)C(=O)N[C@@H](CCC(=O)O)C(=O)N[C@H](C(=O)NCC(=O)N[C@@H](Cc1c[nH]c2ccccc12)C(=O)N[C@@H](Cc1ccc(O)cc1)C(=O)N[C@@H](CCCNC(N)=O)C(=O)N[C@@H](CO)C(=O)N1CCC[C@H]1C(=O)N[C@@H](Cc1ccccc1)C(=O)N[C@@H](CO)C(=O)N[C@@H](CCCNC(N)=O)C(=O)N[C@H](C(=O)N[C@H](C(=O)N[C@@H](Cc1c[nH]cn1)C(=O)N[C@@H](CC(C)C)C(=O)N[C@@H](Cc1ccc(O)cc1)C(=O)N[C@@H](CCCNC(=N)N)C(=O)N[C@@H](CC(N)=O)C(=O)NCC(=O)N[C@@H](CCCCN)C(N)=O)C(C)C)C(C)C)C(C)C", "cell line": "mouse bone marrow-derived dendritic cells", "test": "MTT", "setting": "up to 3 µM", "scale": "baseline: untreated", "viability": "70%"}
{"Structure (SMILES)": "CCN(CC)CC#CCOC(=O)[C@]1(C)CCC[C@]2(C)[C@H]3C[C@H]4C(C(C)C)=C[C@]3(CC[C@H]21)[C@@H]1C(=O)CCC(=O)[C@@H]14", "cell line": "BHK-21-hACE2", "setting": "20.0 µM, 48 (unit not given)", "viability": "112%"}
{"Structure (SMILES)": "COc1cc2c(cc1OC)C(=O)C(=Cc1ccc(N3CCN(C)CC3)cc1)C2", "cell line": "PC-12", "test": "cell viability, MTT", "setting": "concentration not given, 48 h", "viability": "no effect"}
{"Structure (SMILES)": "CCN(CC)CC#CCOC(=O)[C@]1(C)CCC[C@]2(C)c3ccc(C(C)C)cc3CC[C@@H]12", "cell line": "BHK-21-hACE2", "setting": "20.0 µM, 48 (unit not given)", "viability": "86%"}
{"Structure (SMILES)": "CCCCCCCCCCCCCCCC(=O)N[C@@H](CCCCN)C(=O)N1CCC[C@H]1C(=O)N[C@H](C(N)=O)C(C)C", "cell line": "murine cells", "test": "MTT", "setting": "20 µM, 2 h, medium without FBS", "scale": "baseline: untreated", "viability": "≥ 85.5%"}
{"Structure (SMILES)": "Cc1cc(O)c2c(C(=O)[O-])[n+]3n(c2c1)CCCC3", "cell line": "HepG2", "test": "cell growth or viability, CCK-8", "setting": "40 µM, 24 h", "viability": "73.8%"}
{"Structure (SMILES)": "O=C(CN1CCN(c2cc3c(cc2F)c(=O)c(C(=O)O)cn3C2CC2)CC1)Nc1ccc(Cl)cc1", "cell line": "KLE GOF p53", "test": "MTS", "setting": "10 µM, 72 h", "viability": "102 ± 3%"}
{"Structure (SMILES)": "CC1(C)C=Cc2c(cc(O)c3c(=O)cc(-c4ccccc4)oc23)O1", "cell line": "retinoic acid-differentiated SH-SY5Y", "test": "MTT", "setting": "10 µM, 24 h", "scale": "baseline: control", "viability": "92.6 ± 1.2%"}
{"note": "A few entries again:"}
{"Structure (SMILES)": "CC(C)c1ccc2c(c1)CC[C@H]1[C@](C)(C(=O)OCC#CCN3CCCC3)CCC[C@]21C", "cell line": "BHK-21-hACE2", "setting": "20.0 µM, 48 (unit not given)", "viability": "91.5%"}
{"Structure (SMILES)": "Cc1cc(O)c2c(C(=O)[O-])[n+]3n(c2c1)CCCC3", "cell line": "HepG2", "test": "cell growth or viability, CCK-8", "setting": "40 µM, 24 h", "viability": "73.8%"}
{"Structure (SMILES)": "CC1=C2[C@@H](O)[C@H](C(=O)O)CC[C@@]2(C)CCC1=O", "cell line": "RBL-2H3", "test": "cell growth or viability, MTT", "setting": "100 µM", "viability": "> 90%"}
